# Assay results from different studies.
# Every numbered part comes from another study and shows a few of its results, in no order.

# Sample 1
# Target: Sal-like protein 4, full length isoform A (SALL4, Homo sapiens, UniProt Q9UJQ4, residues 1-1053)
# Chain of UniProt Q9UJQ4 (whole entry, looked up): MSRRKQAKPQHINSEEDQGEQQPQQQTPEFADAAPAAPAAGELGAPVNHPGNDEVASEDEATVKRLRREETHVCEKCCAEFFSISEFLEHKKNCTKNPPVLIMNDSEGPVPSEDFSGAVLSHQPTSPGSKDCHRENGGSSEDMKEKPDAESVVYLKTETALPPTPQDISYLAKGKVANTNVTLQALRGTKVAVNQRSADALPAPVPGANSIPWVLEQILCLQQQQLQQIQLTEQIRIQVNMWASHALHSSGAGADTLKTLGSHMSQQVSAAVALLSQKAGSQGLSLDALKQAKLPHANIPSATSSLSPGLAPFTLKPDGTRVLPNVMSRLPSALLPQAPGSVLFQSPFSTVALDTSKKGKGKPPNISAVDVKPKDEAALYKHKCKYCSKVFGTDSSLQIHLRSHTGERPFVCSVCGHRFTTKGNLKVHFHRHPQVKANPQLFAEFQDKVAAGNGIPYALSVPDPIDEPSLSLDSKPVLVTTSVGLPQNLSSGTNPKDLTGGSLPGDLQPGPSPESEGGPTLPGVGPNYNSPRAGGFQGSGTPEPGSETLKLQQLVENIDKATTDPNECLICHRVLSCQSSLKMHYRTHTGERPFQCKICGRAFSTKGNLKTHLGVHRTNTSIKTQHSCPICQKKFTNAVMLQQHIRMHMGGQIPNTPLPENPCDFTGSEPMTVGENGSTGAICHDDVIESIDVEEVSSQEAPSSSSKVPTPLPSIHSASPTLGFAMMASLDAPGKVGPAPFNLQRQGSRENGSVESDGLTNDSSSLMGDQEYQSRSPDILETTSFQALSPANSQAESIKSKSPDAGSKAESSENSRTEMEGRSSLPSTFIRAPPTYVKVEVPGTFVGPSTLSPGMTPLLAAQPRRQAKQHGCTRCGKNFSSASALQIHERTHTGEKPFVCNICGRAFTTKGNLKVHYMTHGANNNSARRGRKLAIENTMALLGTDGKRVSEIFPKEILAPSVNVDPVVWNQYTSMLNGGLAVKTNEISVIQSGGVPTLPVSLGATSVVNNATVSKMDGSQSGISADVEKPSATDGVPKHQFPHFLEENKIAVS
# Method: universal PBM
# Form: double-stranded DNA, one strand shown
# Matrix: in vitro
# Tested at: 600 nM
# Notes: 8-mer, flanks averaged, mean of replicates
# Direction: higher = stronger binding
Sequence,E-score
AATGAGAA,0.15
CCGCCACC,-0.263
ATTCCTTG,0.0578
CCGCGATA,-0.00747
ATACGTCG,0.077
ATACTCTA,0.195
CACGGTTA,0.158

# Sample 2
# Target: RNA binding protein fox-1 homolog 2, RRM domain, GST-SBP tag (RBFOX2, Homo sapiens, UniProt O43251-10, residues 100-194)
# Method: RNA Bind-n-Seq
# Form: RNA
# Matrix: in vitro
# Tested at: 365 nM
# Notes: natural RNA segment, single round, ends assumed
# Relative to: no-protein control
# Direction: higher = stronger binding
# Constant ends, left off below: GGGAGUUCUACAGUCCGACGAUC … UGGAAUUCUCGGGUGCCAA
# Residues (chain): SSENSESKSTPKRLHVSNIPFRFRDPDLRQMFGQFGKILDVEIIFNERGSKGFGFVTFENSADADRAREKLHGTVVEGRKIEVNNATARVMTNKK
Sequence,RBNS enrichment (R)
UGGGCAGCCUGAGCUCCCUCGGGCUCGCCUGCCAGCCUGGAGUUCUUCCUGUGCUCCUUGAUCACCUGAGCUGCCUCAGAUUCCAUUUGGUCCUCUCCUUCCUGGAAGGC,0.223
CAUGGUACGUCCCACCCUGUCCCCAGAUCCCCUAUUCCCUCCACAAUAACAGAAACACUCCCAGGGACUCUGGGGAGAGGCUGAGGACAAAUACCUGCUGUCACUCCAGA,0.703
CUUUCUAUCGCUGUGGAUAAGAGAAUCAGCUACUGUGUUAUUCCUUAUCUGAGCCAAACCCCUUAGCAGAAGAAACUGUCCAGCCACACCGAGUGCUCGAAUGGUGUAUU,2.41
GAGCCGGCCCCACUCUCUGGGUCACCUGACUUUGCUCCCGACGACUCGGCUCCCUGCCGAGGCUCAGCUCUUGGGCAAGUUGGGACUUGGACCUGGCCUGAAGACUGAUU,0.22
GUUCAGAGAUGGCAAUGGAUGAUGGGAAGAUAAGCUCAGAAGGGAAAGGAACCCCUUUGAGAGGUCGCGAGGCCCAUCUUUACUAGGACCCUUCCAUCUCUCCUGGGACA,0.399
AGAGUAGCAAUUGCUAUUUCUAAAUUGUGAACUUUAAGUCAAUCUAGAUUUAUUUUGAGAAGUAAUUGUUCACUCUUUACUUUUGAGGCAGCCAUUAGGUUGAAAGUAUA,0.299
AAAAGUACUGUUUUAGCAGUGCACGUUCACUUCCACAGAGACUUUUAGGUGGGACUGUUCCAAGACACUCUCGAGGAUAUUGCAAACUUGUCCCUGACUAUAGCACAUGU,3.77
UUGACACUUACUUUCCCAUGAACACUUGCAGUUGCUAAGGGACUUUAUUUUGUAACAUAUCAAUUAUAAAUAUUGUAUUUAUCUUUGAAAUUUUGUACAUUGCUUUUCCC,0.48
UGCAAAAUUUUCUACUGGCCAAGUUCAAGUGAGUAAGCCGCGUCCCCCAACUACAGCUGGAGACGGGGCCAGCUCGGCGGCCUGCUGGUCCUCUGCUUGCUGGAACAUUC,0.271

# Sample 3
# Target: Protein max, full length (MAX, Homo sapiens, UniProt P61244-2, residues 1-151)
# Method: protein-binding microarray
# Form: double-stranded DNA, one strand shown
# Matrix: in vitro
# Tested at: not given
# Notes: k-mer, scored over probes, only values ≥0.25
# Direction: higher = stronger binding
Sequence,E-score
AGATCACG,0.323
ACGGGGTA,0.3
CGTCATGC,0.318
ATAGCGTG,0.394
CGTACACG,0.397
ACACGTGG,0.497
CACACCTG,0.328
AACATGCA,0.269

# Further values, each from its own experiment
Molecule,target,assay,test system,setting,how to read,measurement,result
"PhoQ, residues 284 288 289 292 302 303 GANMMA","PhoP, residues 12 14 15 18 19 LHSVQ (Escherichia coli, UniProt P23836)","Sort-seq, refers to: YFP reporter",E. coli,"PhoQ-PhoP variant library, together with: 10 µM Mg2+","relative to: high Mg2+ state, higher = stronger signaling",fold induction,1.08

# Repeated from above (sample 1):
Sequence,E-score
CCGCGATA,-0.00747
ATACGTCG,0.077
